Measurements gathered from unrelated publications.
A part holds a random share of what one study measured.
UniProt Q9UL54, sequence (whole entry, looked up): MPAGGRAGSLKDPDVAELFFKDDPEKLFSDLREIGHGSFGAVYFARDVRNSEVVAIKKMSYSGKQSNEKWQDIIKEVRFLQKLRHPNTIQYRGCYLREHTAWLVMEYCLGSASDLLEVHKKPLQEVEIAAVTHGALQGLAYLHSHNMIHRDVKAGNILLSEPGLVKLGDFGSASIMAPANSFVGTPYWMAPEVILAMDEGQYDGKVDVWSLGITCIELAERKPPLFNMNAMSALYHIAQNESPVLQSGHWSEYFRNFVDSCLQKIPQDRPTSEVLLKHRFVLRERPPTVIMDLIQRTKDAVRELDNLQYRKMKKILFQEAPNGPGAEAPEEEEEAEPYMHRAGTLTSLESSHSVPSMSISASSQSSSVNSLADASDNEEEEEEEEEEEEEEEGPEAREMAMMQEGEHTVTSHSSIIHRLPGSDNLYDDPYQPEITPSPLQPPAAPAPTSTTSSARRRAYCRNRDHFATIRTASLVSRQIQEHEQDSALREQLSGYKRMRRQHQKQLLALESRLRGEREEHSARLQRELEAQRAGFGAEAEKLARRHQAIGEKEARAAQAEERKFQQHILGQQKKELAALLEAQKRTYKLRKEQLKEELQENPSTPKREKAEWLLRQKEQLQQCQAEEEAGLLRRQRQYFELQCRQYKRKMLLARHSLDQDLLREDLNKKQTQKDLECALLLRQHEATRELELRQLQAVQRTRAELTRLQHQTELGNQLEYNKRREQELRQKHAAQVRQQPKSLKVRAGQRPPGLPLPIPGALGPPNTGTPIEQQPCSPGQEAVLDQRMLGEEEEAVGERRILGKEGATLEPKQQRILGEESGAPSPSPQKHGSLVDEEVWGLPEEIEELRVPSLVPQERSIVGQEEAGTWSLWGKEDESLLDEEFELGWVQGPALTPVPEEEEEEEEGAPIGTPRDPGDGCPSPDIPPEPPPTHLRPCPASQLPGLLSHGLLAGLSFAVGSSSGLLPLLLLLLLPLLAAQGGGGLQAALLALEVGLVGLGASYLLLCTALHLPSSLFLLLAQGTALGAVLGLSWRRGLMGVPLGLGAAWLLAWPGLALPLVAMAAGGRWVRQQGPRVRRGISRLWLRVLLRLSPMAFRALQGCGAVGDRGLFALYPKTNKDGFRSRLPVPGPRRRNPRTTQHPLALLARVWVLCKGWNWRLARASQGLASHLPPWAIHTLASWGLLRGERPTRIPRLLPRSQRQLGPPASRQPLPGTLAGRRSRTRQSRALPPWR
UniProt P78368, sequence (whole entry, looked up): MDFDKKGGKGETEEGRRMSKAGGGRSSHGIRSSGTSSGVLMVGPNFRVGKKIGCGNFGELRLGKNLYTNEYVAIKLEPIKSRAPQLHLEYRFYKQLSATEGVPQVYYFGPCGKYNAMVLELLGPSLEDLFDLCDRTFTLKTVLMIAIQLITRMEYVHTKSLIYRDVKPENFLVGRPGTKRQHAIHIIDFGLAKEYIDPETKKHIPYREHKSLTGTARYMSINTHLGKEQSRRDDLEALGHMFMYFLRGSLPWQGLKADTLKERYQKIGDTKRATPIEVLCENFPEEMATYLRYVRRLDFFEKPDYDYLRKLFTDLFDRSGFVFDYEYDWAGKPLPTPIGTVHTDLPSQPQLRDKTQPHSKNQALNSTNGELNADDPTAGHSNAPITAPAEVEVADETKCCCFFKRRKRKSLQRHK
UniProt P06239, sequence (whole entry, looked up): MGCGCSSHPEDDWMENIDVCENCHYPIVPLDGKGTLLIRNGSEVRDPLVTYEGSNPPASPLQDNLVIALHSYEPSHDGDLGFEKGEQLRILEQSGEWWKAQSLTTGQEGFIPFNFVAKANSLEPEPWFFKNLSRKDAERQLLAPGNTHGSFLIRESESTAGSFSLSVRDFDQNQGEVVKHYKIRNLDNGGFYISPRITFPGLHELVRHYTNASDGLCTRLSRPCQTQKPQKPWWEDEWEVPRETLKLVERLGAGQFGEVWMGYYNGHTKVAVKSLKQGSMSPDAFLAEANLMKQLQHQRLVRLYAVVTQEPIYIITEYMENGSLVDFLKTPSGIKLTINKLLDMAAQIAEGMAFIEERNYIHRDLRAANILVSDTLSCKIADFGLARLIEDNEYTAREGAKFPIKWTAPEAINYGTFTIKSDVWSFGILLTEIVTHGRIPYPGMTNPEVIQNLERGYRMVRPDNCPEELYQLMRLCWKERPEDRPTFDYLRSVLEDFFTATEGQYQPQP
UniProt O76039, sequence (whole entry, looked up): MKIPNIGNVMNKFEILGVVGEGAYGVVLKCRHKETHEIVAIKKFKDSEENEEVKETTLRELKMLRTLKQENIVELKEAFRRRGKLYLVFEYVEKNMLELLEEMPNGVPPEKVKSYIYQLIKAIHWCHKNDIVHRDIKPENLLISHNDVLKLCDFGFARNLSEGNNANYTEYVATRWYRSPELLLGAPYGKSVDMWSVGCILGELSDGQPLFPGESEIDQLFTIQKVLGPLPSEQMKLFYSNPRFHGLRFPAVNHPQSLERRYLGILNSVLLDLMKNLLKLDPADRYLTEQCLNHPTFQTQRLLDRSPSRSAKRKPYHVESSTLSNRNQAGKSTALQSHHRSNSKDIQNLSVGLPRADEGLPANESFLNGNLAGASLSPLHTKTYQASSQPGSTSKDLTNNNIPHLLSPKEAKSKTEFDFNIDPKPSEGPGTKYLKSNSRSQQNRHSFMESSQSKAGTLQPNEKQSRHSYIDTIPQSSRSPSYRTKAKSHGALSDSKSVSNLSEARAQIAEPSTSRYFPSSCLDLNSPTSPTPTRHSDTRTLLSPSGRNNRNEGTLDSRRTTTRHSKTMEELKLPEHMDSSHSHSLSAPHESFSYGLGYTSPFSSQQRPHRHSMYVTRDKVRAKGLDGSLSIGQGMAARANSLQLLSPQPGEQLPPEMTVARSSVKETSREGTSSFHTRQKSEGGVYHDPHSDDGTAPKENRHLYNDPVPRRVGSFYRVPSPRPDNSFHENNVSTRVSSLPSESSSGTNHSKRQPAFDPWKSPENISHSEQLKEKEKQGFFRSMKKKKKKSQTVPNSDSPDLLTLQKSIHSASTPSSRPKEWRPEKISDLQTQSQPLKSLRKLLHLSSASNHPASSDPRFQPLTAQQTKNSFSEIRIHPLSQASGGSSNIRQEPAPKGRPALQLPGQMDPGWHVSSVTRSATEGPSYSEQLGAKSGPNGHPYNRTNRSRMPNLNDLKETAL
UniProt P36896, sequence (whole entry, looked up): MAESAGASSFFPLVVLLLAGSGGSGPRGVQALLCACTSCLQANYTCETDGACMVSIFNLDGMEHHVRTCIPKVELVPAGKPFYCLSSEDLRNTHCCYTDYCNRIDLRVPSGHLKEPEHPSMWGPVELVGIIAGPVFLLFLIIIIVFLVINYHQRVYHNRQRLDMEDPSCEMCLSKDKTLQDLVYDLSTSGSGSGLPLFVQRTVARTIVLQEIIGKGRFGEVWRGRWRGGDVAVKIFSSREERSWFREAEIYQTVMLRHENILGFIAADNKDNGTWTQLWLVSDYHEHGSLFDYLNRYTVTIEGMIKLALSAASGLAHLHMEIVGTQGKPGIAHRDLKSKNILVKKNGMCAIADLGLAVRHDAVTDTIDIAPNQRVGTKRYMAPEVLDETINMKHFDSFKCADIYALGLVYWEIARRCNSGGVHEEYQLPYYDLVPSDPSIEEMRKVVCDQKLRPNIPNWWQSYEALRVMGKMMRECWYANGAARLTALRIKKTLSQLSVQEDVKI
UniProt P49759, sequence (whole entry, looked up): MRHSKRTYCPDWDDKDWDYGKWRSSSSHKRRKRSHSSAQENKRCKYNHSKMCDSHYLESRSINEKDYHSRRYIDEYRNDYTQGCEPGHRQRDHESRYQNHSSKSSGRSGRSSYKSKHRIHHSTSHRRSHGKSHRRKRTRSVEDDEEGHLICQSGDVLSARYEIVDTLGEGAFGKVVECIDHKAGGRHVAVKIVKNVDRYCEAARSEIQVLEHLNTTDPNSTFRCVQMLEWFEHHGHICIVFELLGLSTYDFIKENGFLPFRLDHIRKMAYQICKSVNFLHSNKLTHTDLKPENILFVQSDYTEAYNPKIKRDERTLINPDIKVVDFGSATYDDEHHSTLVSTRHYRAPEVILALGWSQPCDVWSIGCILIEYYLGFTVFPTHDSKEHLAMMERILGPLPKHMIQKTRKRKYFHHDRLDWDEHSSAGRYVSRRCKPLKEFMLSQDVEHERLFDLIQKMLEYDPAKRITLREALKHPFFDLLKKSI
UniProt P49137, sequence (whole entry, looked up): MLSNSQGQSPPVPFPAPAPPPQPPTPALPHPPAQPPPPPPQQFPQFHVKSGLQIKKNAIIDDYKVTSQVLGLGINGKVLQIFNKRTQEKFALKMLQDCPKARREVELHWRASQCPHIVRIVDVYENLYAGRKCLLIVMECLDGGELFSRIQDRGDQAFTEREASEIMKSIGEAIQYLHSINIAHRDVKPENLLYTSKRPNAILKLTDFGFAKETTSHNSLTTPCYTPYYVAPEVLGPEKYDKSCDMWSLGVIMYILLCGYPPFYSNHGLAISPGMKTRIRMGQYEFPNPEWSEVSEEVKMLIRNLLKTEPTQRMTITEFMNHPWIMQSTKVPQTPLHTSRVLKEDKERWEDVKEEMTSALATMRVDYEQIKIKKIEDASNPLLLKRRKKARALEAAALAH
UniProt Q9HC98, sequence (whole entry, looked up): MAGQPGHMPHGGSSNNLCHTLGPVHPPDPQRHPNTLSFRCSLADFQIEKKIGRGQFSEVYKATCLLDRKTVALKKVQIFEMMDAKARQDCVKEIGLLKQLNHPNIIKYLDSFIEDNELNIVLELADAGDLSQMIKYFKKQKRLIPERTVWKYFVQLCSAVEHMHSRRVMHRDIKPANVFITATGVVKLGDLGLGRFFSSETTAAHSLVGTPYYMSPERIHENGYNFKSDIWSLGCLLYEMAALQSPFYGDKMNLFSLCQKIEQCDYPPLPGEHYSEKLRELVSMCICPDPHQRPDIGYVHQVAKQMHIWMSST

Series 1
Structure (SMILES): CO[C@H]1CC[C@H](CNc2ccc(S(=O)(=O)NC(=O)c3ccc(N4CCN(CC5=C(c6ccc(Cl)cc6)CC(C)(C)CC5)CC4)cc3Oc3cnc4[nH]ccc4c3)cc2[N+](=O)[O-])CC1
Read-out: cell-free assay
Technique: competition with immobilised ligand
Tested at: 1 µM
Endpoint: remaining binding
Dual specificity protein kinase CLK1 (CLK1, Homo sapiens, UniProt P49759): 92%
Dual specificity tyrosine-phosphorylation-regulated kinase 1A (DYRK1A, Homo sapiens, UniProt Q13627): 65%
Mast/stem cell growth factor receptor Kit (KIT, Homo sapiens, UniProt P10721): 91%
Ribosomal protein S6 kinase alpha-4, C-terminal kinase domain (RPS6KA4, Homo sapiens, UniProt O75676): 90%
Ephrin type-A receptor 5 (EPHA5, Homo sapiens, UniProt P54756): 78%
Epidermal growth factor receptor (EGFR, Homo sapiens, UniProt P00533, del752-759): 61%
Protein kinase C delta type (PRKCD, Homo sapiens, UniProt Q05655): 70%
Cyclin-dependent kinase-like 5 (CDKL5, Homo sapiens, UniProt O76039): 74%

Series 2
Medium: hydrocarbon/water
pH: 7.4
Endpoint: logD
CCC[C@@H]1C(=O)N(C)[C@@H](CC2CCCCC2)C(=O)N[C@@H](CC2CCCCC2)C(=O)N2CCC[C@@H]2C(=O)N(C)[C@@H](Cc2ccc(O)cc2)C(=O)N[C@@H](CC(C)C)C(=O)N1C: 3.39
CCC[C@H]1C(=O)N[C@@H](CC2CCCCC2)C(=O)N(C)[C@@H](C)C(=O)N[C@@H](CC(C)C)C(=O)N(C)Cc2cn(nn2)CC(=O)N[C@@H](CC(C)C)C(=O)N(C)[C@@H](C)C(=O)N[C@@H](CC(C)C)C(=O)N2CCC[C@@H]2C(=O)N1C: 1.83
CC[C@@H]1C(=O)N(C)[C@@H](CC(C)C)C(=O)N[C@@H](CC(C)C)C(=O)N2CCC[C@@H]2C(=O)N(C)[C@@H](Cc2ccccc2)C(=O)N[C@@H](CC(C)C)C(=O)N1C: ≥ 3.45
CCC[C@@H]1NC(=O)[C@H](C)N(C)C(=O)[C@H](CC(C)C)NC(=O)Cn2cc(nn2)CN(C)C(=O)[C@H](CC(C)C)NC(=O)[C@H](C)N(C)C(=O)[C@H](CC(C)C)NC(=O)CN(CCC)C(=O)[C@H]2CCCN2C1=O: -0.401
CCCCCN1CC(=O)NC(CC(C)C)C(=O)N(C)C(C)C(=O)NC(Cc2ccccc2)C(=O)N2CCCC2C(=O)N(CCCOC(C)C)CC(=O)NC(CC(C)C)C(=O)N(C)C(C)C(=O)NC(CC(C)C)C(=O)N2CCCC2C1=O (stereo not drawn): ≥ 3.32
CCCCCN1CC(=O)NC(CC(C)C)C(=O)N(C)C(C)C(=O)NC(Cc2ccccc2)C(=O)N2CCCC2C(=O)N(CC)CC(=O)NC(CC(C)C)C(=O)N(C)C(C)C(=O)NC(CC(C)C)C(=O)N2CCCC2C1=O (stereo not drawn): ≥ 3.4
CCC[C@@H]1NC(=O)CN(CC)C(=O)[C@H](CC(C)C)NC(=O)Cn2cc(nn2)CN(C)C(=O)[C@H](CC(C)C)NC(=O)[C@H](C)N(C)C(=O)[C@H](CC2CCCCC2)NC(=O)[C@H](C)N(C)C(=O)[C@H]2CCCN2C1=O: -0.418
CC(C)C[C@@H]1NC(=O)[C@H](C)N(C)C(=O)[C@H](CC2CCCCC2)NC(=O)[C@H](CC(C)C)N(C)C(=O)[C@H]2CCCN2C(=O)[C@H](CC2CCCCC2)NC(=O)[C@H](C)N(C)C(=O)[C@H](C2CCCCC2)NC(=O)Cn2cc(nn2)CN(C)C1=O: 2.96
CC(C)CC1NC(=O)CN(CC2CCCCC2)C(=O)C2CCCN2C(=O)C(CC(C)C)NC(=O)C(C)N(C)C(=O)C(CC(C)C)NC(=O)CN(CCCOC(C)C)C(=O)C2CCCN2C(=O)C(Cc2ccccc2)NC(=O)C(C)N(C)C1=O (stereo not drawn): 3.28
CCC[C@H]1C(=O)N[C@@H](CC(C)C)C(=O)N(C)[C@@H](C)C(=O)N[C@@H](CC(C)C)C(=O)N(C)Cc2cn(nn2)CC(=O)N[C@@H](CC(C)C)C(=O)N(C)[C@@H](C)C(=O)N[C@@H](CC(C)C)C(=O)N2CCC[C@@H]2C(=O)N1C: 0.819
CCN1CC(=O)NC(CC(C)C)C(=O)N(C)C(C)C(=O)NC(CC(C)C)C(=O)N2CCCC2C(=O)N(CC2CCCCC2)CC(=O)NC(CC(C)C)C(=O)N(C)C(C)C(=O)NC(Cc2ccccc2)C(=O)N2CCCC2C1=O (stereo not drawn): ≥ 3.4

Series 3
Compound: O=C1C(Cl)=C(N2C(=O)CCC2=O)C(=O)c2ccccc21
Read-out: enzyme activity
Mode: inhibitor
Tested at: 0.5 µM
Baseline: control
Endpoint: remaining activity
Serine/threonine-protein kinase A-Raf (ARAF, Homo sapiens, UniProt P10398): 105%
Glycogen synthase kinase-3 beta (GSK3B, Homo sapiens, UniProt P49841): 100%
Serine/threonine-protein kinase TAO2 (TAOK2, Homo sapiens, UniProt Q9UL54): 99.2%
Serine/threonine-protein kinase Nek6 (NEK6, Homo sapiens, UniProt Q9HC98): 104%
Fibroblast growth factor receptor 1 (FGFR1, Homo sapiens, UniProt P11362): 99.5%
MAP kinase-activated protein kinase 2 (MAPKAPK2, Homo sapiens, UniProt P49137): 105%
Casein kinase I isoform gamma-2 (CSNK1G2, Homo sapiens, UniProt P78368): 99.3%
Macrophage-stimulating protein receptor (MST1R, Homo sapiens, UniProt Q04912): 94.5%
Fibroblast growth factor receptor 3 (FGFR3, Homo sapiens, UniProt P22607): 106%
Ephrin type-A receptor 3 (EPHA3, Homo sapiens, UniProt P29320): 105%
Dual specificity mitogen-activated protein kinase kinase 2 (MAP2K2, Homo sapiens, UniProt P36507): 106%
Tyrosine-protein kinase FRK (FRK, Homo sapiens, UniProt P42685): 103%
Tyrosine-protein kinase Lck (LCK, Homo sapiens, UniProt P06239): 106%
Activin receptor type-1B (ACVR1B, Homo sapiens, UniProt P36896): 106%

Series 4
Species: human
Medium: microsomes or S9
Tested at: 2 µM
Time: 0.5 h
Endpoint: remaining compound
Clc1nc2cccnc2n2nc(-c3ccco3)cc12: 3.79%
NS(=O)(=O)c1ccc(CCNS(=O)(=O)Cc2ccccc2Cl)cc1: 88.6%
COc1cccc2c1OCC(C(=O)N1CCC3(CCCO3)CC1)C2 (stereo not drawn): 63.9%
OC1=C2C(=Nc3ncnn3C2c2cn(-c3ccccc3)nc2-c2cccnc2)CCC1 (stereo not drawn): 70.6%
CN1CCN(Cc2ccc(-c3cn(C(=O)OC(C)(C)C)nc3C3CCCN(C(=O)OC(C)(C)C)C3)cc2)CC1 (stereo not drawn): 3.43%
O=C(O)CCc1ccc(N2Cc3ccc(NC(=O)c4ccccc4)cc3C2=O)cc1: 88.5%
COC(=O)c1ccc(C(F)(F)F)nc1OC(C)C(=O)Nc1ccccc1 (stereo not drawn): 0.00816%
COCCNC(=O)C(=O)N1CCC(OC(=O)c2ccc(Oc3ccccc3)cc2)C(N2CCN(c3ccc(F)cc3)CC2)C1 (stereo not drawn): 58.2%
CCOc1ccc(C(C)=O)cc1COc1ncnc2ccc(Br)cc12: > 100%

Some of these lines once more (series 4):
COC(=O)c1ccc(C(F)(F)F)nc1OC(C)C(=O)Nc1ccccc1 (stereo not drawn): 0.00816%
OC1=C2C(=Nc3ncnn3C2c2cn(-c3ccccc3)nc2-c2cccnc2)CCC1 (stereo not drawn): 70.6%
NS(=O)(=O)c1ccc(CCNS(=O)(=O)Cc2ccccc2Cl)cc1: 88.6%
Clc1nc2cccnc2n2nc(-c3ccco3)cc12: 3.79%
COCCNC(=O)C(=O)N1CCC(OC(=O)c2ccc(Oc3ccccc3)cc2)C(N2CCN(c3ccc(F)cc3)CC2)C1 (stereo not drawn): 58.2%
